Results from different studies.
Each numbered part is a random draw from the data of one study; scales do not carry over between parts. Substitutions count along the parent as printed.

Set 1 — technique: RNA Bind-n-Seq; molecule type: RNA; sample: in vitro; concentration: 365 nM; relative to: no-protein control; direction: higher = stronger binding; measurement: RBNS enrichment (R)
Target: RNA binding protein fox-1 homolog 2, RRM domain, GST-SBP tag (RBFOX2, Homo sapiens, UniProt O43251-10, residues 100-194)
Setting: natural RNA segment, single round, ends assumed
Construct (chain): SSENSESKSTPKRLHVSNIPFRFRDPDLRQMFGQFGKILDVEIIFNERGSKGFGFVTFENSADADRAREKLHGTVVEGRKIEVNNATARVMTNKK
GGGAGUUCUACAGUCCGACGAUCGCGCUACGCCCAGAUCCAGCUGGACAAGCUCAAGAAAACCAAUGUCUUCAAUGCCACCUUCCACAUCUGGCACAGCGGACAGUUUGGCACAAUCAAUAAUUUCAGACUGGUGGAAUUCUCGGGUGCCAA: 0.354
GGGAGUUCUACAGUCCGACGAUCCUGUAAAAAGGGAGGUGAGAAUACCUACCUCACGGAACUGUUGGGAGGCUCAGAUGAGAUGCUAUAUGUGAAAACAUUCUGUAAGCUUCGUACAAAUGUGAAGUAUUAAUUGGAAUUCUCGGGUGCCAA: 0.547
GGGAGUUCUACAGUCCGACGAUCCCCUAGUCUUAGUAUUGGACGCUAUUUACUCAGCUAUCAAGUAGAGAUCUUCAAGACGGCCUUUAUGAAAAGUUAGUGUGGUGUUAACACUAAAGUAGGUGGGGUGUGGGUGGAAUUCUCGGGUGCCAA: 0.389
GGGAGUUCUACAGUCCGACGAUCCAGAAUUAUUAUUCAGAUCAAGAAAUCUGUGUCGAUAAAACCUAAUCUCAUAUUGGAGAGUGAAUGUCGUUAAGUAUUUCUGAAAUGUUUCUAAAAAAUGAACAUGAAAAUGGAAUUCUCGGGUGCCAA: 0.565
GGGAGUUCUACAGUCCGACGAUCUGAUCUCUUAGAAGCCAUGGGACCUCCUCCCUCAUUCAUCUUGCAAGCAAAUCCCAUUUCUUGAAAAGCCUUGGAGAACUCGGUUUGGUAGACUUGGACAUCUCUCUGGCUGGAAUUCUCGGGUGCCAA: 0.798
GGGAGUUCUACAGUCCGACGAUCAUUGCCAGGAAUGUUUCAGCUGCAGUUGAAGAGCCUGACAAGUGAAGUUGUAAACACAGUGUGGUUAUGGGGAGAGGGCAUAUAAAUUCCCCAUAUUUGUGUUCAGUUCCUGGAAUUCUCGGGUGCCAA: 0.343
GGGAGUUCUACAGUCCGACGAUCAAUUCUGUGAGCAGAGUUUCUAGCUGCUGGAUUGUUGUCUGUCUUUAUAGCAGGUCCCAGUGAACCACAAGAAUGGCGAGGGUUAUCUGGUUACAGUUGGAUCAAUCAGUUGGAAUUCUCGGGUGCCAA: 0.46
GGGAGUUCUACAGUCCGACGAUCAUUGGUCAUGUGUGUAUUUUUCCAUAGUCCCACCUUGGAGCAUUUAUGUAGACAUUGUAAAUAAAUUUUGUGCAAAAAGGACUGGAAAGAUGAACUGUAUUAUUGCAUUUUGGAAUUCUCGGGUGCCAA: 3.14
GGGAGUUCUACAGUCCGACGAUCGUCUUCAUAUUUACCUUCUGAGGUCAUUUUUUAACUUAAUGUGUUACUACAAAGAUUUGCAGAUCUUUAAUCAAGCACUAUGUUAAUACUGUAAUAUCAAAAUACUAUGUUGGAAUUCUCGGGUGCCAA: 0.612
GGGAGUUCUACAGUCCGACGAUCCAUGAUCCAGGGAAUGAAAAGAAAUUUGACCCUGGAUUAGUUUCUUUGUCGGCGCUGAGGAACACUGCUUUUUCACAAAGUUCCCCCGGGAUAGAAUGGCUGUCCAGUCUUGGAAUUCUCGGGUGCCAA: 0.243
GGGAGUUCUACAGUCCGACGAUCCUCUGGCUCAGGUUGCUCAAAGCACAGAUCCUCUCUUACCCCGUCCCCAGGUUUGAAACACAUAGCCUCAUUUCAAGGUGUAGCCAGGUUCCCCCGACUUUCCUCUGGGAUGGAAUUCUCGGGUGCCAA: 0.418
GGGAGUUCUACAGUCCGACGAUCGUCACCUGCCCAGAUCCCAGAAGGACCUCCUGAGCGAUGACUCAAGUGUCUCAGUCCACCUGAGCUGCCAUCCAGGGAUGCCAUCUGUGGGCACGCUGUGGGCAGGUGGGUGGAAUUCUCGGGUGCCAA: 0.413

Set 2 — target: CCNB2, cyclin fold, Cln2 fusion (human); technique: yeast growth competition, sequencing; sample: yeast; setting: weak parent motif; relative to: not given; direction: higher = stronger binding; measurement: normalised enrichment score
Starting sequence: CDKN1A docking peptide (human); SKACRRLFGPVDS
SKWCRRLFGPVDS [A3W]: 0.69
SKACRRDFGPVDS [L7D]: 0.137
SKACRRLFTPVDS [G9T]: 0.305
SDACRRLFGPVDS [K2D]: 0.419
SKACRRLFGFVDS [P10F]: -0.0228
SKACRDLFGPVDS [R6D]: -0.0745
SKACRRCFGPVDS [L7C]: 0.263
SKACARLFGPVDS [R5A]: -0.192
SKALRRLFGPVDS [C4L]: 0.219
SKACRALFGPVDS [R6A]: -0.0788
SKACRRLFGDVDS [P10D]: 0.165
SIACRRLFGPVDS [K2I]: 0.289
SKACRRLFGPVKS [D12K]: 0.46
SKACRRLFGPVHS [D12H]: 0.534
SKACRRLRGPVDS [F8R]: 0.323
SKACRRLMGPVDS [F8M]: 0.241
SKACRRLCGPVDS [F8C]: 0.415
SKACRRQFGPVDS [L7Q]: 0.5
SKACIRLFGPVDS [R5I]: -0.00698
SKACRRLFGPRDS [V11R]: 0.806
SKACRRLFGIVDS [P10I]: 0.415
SKACRRLFKPVDS [G9K]: 0.866
SKACRRLFGAVDS [P10A]: 0.369
SKACRRLLGPVDS [F8L]: -0.265
SKACRRLFGPNDS [V11N]: 0.0359

Set 3 — technique: universal PBM; molecule type: double-stranded DNA, one strand shown; sample: in vitro; concentration: 600 nM; direction: higher = stronger binding; measurement: E-score
Target: Sal-like protein 4, full length isoform A (SALL4, Homo sapiens, UniProt Q9UJQ4, residues 1-1053)
Sequence of UniProt Q9UJQ4 (whole entry, looked up): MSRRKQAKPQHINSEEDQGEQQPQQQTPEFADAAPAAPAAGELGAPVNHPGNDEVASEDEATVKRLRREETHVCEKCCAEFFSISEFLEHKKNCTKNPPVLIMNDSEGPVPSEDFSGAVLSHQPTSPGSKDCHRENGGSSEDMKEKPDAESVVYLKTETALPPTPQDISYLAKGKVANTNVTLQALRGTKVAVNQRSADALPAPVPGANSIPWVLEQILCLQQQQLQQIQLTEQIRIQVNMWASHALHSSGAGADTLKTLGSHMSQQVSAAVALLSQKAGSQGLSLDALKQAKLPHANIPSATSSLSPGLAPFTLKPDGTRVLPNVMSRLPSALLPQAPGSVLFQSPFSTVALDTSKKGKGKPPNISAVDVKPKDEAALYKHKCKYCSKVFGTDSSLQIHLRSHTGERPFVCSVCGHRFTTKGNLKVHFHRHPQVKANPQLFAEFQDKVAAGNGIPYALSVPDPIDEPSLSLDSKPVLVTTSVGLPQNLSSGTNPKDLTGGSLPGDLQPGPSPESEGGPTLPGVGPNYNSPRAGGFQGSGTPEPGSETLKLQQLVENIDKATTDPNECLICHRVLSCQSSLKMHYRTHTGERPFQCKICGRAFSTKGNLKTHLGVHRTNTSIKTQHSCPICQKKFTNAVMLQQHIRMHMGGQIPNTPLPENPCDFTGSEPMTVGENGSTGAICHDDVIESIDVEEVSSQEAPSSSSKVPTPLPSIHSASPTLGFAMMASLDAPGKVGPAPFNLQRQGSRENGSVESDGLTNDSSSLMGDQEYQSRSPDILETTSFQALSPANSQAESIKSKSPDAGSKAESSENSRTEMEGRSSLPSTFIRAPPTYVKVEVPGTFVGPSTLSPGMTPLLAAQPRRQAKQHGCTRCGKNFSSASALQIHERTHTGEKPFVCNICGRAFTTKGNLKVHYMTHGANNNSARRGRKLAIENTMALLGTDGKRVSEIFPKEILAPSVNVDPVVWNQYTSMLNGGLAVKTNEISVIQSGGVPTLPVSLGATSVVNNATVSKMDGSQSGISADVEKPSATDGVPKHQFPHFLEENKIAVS
Setting: 8-mer, flanks averaged, mean of replicates
CCCCGAAA: -0.0436
AGAAGGGC: -0.274
TGCAGAAA: 0.202
CCGCCACG: -0.174
ATACCACC: -0.0319
CGTCACAA: -0.0173
GTGAAAGA: 0.172
GTTTAGGA: -0.0854
ACCCACCG: -0.164
ATGATGAA: 0.274
GCCTGGCC: -0.323
GATCGTGA: -0.0441
GAGCGAGA: -0.0425
GATCTCTA: 0.0418
AGGATATC: 0.0148
AATCGAGC: -0.0608
ATGGCCGA: -0.182
ATCACACA: 0.127
TGTTACAA: 0.205
GGCGGACA: -0.276
ATGGCAAA: 0.184
TCCGTGCA: -0.0576

Set 4 — technique: protein binding microarray; molecule type: double-stranded DNA, one strand shown; sample: in vitro; concentration: not given; relative to: not given; direction: higher = stronger binding; measurement: E-score
Target: Histone acetyltransferase KAT6A, winged helix 2, GST fusion (KAT6A, Homo sapiens, UniProt Q92794, residues 85-181)
Setting: 8-mer, flanks averaged, mean of 2 arrays, mostly near background
Residues (chain): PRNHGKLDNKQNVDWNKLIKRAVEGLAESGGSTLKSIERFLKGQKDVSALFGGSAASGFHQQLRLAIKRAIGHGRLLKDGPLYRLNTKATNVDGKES
CCACTCCG: 0.0103
GCTCGGAC: 0.0805
ACTCTTAG: 0.021
ATGCATTC: -0.0405
GCACTTAA: -0.00306
AGCACAAC: 0.107
AAGAGCTC: -0.172
ACGATCGT: -0.111
TACTTATA: -0.0315
ACAGACTG: -0.211
CTAAGTAG: -0.0418
CACAACCG: 0.0573
AGGCAGTC: -0.0803
ACTGGCCG: -0.0539
ATATTCAA: 0.0535
ATCAACCG: -0.0237
ATAGCTTG: -0.00967
AACCGGTC: -0.0759
CATGCATA: -0.149
ACAAGGAT: 0.0755
ACGTCCCA: -0.209
ATTCTCGA: -0.0193
CCATTCCC: -0.00052
AGACAGTG: -0.0389
GAATGTAC: -0.0961

Repeated from above (set 3):
ATGATGAA: 0.274
GCCTGGCC: -0.323
GATCGTGA: -0.0441
GAGCGAGA: -0.0425
GATCTCTA: 0.0418
AGGATATC: 0.0148
AATCGAGC: -0.0608
ATGGCCGA: -0.182
